Measured values of several laboratories.
Parts stem from different laboratories: compare values within a part only. “And” joins repeats or separate records; there may be more than shown.
Chain of UniProt Q13233 (whole entry, looked up): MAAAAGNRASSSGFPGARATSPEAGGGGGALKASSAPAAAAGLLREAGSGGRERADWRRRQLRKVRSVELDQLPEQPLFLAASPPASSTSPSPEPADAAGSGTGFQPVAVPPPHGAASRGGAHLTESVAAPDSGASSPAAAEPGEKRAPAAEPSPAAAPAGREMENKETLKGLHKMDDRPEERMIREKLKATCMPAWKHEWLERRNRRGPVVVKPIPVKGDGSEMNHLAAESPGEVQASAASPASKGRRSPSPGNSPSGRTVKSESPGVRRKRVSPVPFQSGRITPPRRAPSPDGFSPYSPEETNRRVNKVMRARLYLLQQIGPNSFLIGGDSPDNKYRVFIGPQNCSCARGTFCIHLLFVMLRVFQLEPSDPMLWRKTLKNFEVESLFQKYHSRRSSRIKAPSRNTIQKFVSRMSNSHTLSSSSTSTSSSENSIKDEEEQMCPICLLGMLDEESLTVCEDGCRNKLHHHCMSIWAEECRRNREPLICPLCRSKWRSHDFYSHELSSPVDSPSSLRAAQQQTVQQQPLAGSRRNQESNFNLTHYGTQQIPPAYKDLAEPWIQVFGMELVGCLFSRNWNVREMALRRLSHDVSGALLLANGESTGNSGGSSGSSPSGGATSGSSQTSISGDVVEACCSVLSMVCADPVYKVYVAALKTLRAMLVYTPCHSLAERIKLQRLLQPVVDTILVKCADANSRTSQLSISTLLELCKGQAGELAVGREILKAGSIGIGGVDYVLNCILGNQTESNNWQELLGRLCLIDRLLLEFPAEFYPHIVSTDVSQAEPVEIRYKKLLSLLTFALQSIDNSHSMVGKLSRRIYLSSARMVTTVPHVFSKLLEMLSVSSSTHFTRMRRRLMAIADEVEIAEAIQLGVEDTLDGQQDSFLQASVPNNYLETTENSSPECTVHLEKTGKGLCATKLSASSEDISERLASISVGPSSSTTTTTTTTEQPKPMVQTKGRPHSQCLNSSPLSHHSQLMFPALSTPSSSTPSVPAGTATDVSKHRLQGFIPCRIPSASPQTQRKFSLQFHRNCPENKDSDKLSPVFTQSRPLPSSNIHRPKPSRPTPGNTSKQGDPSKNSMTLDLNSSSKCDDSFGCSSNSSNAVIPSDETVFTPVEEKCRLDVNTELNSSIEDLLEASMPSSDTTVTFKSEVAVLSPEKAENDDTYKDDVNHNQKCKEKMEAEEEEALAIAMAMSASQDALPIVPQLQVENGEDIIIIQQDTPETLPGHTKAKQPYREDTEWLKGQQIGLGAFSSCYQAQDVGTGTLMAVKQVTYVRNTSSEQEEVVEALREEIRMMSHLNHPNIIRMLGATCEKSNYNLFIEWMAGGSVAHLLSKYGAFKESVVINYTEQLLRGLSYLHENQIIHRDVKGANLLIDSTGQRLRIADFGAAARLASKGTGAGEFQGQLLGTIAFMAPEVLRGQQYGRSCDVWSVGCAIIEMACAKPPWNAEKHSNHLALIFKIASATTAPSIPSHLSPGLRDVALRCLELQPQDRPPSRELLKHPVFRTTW
Chain of UniProt P19784 (whole entry, looked up): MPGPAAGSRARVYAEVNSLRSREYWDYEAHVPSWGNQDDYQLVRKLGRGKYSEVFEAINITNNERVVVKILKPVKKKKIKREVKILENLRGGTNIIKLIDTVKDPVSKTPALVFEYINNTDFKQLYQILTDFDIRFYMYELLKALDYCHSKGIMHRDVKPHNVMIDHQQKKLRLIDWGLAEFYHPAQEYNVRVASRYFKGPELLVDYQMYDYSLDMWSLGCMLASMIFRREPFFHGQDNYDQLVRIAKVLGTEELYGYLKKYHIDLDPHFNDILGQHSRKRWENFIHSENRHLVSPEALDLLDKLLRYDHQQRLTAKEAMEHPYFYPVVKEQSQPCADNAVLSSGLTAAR
Chain of UniProt Q16620 (whole entry, looked up): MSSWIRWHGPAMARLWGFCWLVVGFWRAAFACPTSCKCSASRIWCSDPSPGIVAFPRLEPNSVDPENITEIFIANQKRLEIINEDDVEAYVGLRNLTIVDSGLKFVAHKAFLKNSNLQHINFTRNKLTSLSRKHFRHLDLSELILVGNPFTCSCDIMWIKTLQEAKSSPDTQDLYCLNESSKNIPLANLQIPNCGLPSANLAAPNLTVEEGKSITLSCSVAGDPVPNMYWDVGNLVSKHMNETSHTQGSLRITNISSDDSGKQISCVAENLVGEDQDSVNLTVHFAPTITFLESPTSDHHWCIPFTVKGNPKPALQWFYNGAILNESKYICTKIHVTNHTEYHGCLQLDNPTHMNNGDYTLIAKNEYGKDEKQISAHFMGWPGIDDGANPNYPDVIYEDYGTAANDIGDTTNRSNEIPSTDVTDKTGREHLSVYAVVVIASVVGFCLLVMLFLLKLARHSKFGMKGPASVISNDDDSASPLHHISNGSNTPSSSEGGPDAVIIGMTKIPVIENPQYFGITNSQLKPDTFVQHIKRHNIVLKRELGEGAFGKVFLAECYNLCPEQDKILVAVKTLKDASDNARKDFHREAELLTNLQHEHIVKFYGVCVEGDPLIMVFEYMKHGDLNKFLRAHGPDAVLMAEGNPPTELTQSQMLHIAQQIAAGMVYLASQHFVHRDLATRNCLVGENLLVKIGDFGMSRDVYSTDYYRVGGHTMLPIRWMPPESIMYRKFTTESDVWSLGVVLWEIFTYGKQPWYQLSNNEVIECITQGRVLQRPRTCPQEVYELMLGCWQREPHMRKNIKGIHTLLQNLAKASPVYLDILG
Chain of UniProt Q13237 (whole entry, looked up): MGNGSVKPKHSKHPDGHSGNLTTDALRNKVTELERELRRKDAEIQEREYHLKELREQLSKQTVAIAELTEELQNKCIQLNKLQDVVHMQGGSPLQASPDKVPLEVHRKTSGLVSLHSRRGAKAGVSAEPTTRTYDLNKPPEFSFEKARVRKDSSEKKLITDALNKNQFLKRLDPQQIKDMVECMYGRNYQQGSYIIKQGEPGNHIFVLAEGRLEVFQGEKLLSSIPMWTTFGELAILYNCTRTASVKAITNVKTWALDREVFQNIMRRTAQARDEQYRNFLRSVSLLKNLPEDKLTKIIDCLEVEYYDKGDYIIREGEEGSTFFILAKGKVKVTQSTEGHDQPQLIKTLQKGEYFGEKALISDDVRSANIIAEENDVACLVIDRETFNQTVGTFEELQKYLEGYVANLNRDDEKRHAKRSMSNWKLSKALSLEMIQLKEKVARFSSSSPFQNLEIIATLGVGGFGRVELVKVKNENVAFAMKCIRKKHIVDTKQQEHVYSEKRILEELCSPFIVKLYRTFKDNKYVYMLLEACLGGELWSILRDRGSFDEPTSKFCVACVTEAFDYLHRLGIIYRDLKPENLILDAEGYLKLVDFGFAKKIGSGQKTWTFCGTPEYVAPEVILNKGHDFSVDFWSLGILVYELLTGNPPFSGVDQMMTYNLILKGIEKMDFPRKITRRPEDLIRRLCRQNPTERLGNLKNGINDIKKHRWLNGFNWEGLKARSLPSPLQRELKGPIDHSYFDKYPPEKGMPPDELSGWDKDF
Chain of UniProt Q9H2K8 (whole entry, looked up): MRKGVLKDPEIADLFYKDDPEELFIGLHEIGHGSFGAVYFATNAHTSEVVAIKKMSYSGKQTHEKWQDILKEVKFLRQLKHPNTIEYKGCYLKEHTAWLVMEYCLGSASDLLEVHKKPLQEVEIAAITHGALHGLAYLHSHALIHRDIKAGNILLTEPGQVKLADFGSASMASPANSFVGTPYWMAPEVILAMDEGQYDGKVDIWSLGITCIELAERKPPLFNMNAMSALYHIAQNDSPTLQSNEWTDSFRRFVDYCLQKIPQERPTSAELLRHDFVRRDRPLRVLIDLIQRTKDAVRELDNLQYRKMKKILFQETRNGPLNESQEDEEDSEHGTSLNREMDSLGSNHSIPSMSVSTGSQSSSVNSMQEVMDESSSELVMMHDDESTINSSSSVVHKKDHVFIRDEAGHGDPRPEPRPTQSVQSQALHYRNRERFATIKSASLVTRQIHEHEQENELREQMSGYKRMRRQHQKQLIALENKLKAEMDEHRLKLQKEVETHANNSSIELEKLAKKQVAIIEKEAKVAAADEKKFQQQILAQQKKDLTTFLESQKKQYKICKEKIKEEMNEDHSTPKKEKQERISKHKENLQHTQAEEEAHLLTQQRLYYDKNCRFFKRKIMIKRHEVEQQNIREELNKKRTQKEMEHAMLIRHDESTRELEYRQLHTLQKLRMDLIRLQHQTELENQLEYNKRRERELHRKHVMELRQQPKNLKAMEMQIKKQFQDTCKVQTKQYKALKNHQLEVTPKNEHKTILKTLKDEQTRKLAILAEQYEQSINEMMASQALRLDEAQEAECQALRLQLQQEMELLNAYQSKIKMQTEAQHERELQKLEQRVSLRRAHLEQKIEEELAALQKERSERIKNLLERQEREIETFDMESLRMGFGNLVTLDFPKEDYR

Series 1
Cell line: mouse MPNST tumor cells
Method: high-content nuclear imaging
Item: cell number
Tested at: 10 µM
Time: 12 h
Setting: mean of 2 replicates
Baseline: plate mean
Direction: higher = more cells
| Structure (SMILES) | nuclei count |
| --- | --- |
| CO[C@@H]1[C@H](O)[C@@H](CO)O[C@H]1n1cnc2c(NC3CCCCC3)ncnc21 | 1.27 z-score |
| CC(C)(C)C(=O)OCC(=O)[C@H]1CC[C@H]2[C@@H]3CCC4=CC(=O)CC[C@]4(C)[C@H]3CC[C@]12C | 0.38 z-score |
| O=C1Cc2cc(CCN3CCN(c4nsc5ccccc45)CC3)c(Cl)cc2N1 | -0.704 z-score |
| COc1ccc(Cl)cc1[C@]1(F)C(=O)Nc2cc(C(F)(F)F)ccc21 | 2.88 z-score |
| CN(C)C/C=C(/c1ccc(Br)cc1)c1cccnc1 | 1.99 z-score |
| Cc1cc(C2CCCCC2)n(O)c(=O)c1 | -3.77 z-score and -1.48 z-score |

Series 2
Compound: Cc1ccc(NC(=O)c2ccnc(C(F)(F)F)c2)cc1-c1cc(OCCO)nc(N2CCOCC2)c1
Effect on: binding
Tested at: 1 µM
| target | test | remaining binding |
| --- | --- | --- |
| PIK3CA (Homo sapiens, UniProt P42336, C420R) |  | 94% |
| MAP3K1 (Homo sapiens, UniProt Q13233) |  | 100% |
| TAOK3 (Homo sapiens, UniProt Q9H2K8) | competition with immobilised ligand | 89% |
| NTRK2 (Homo sapiens, UniProt Q16620) | competition with immobilised ligand | 100% |
| PRKG2 (Homo sapiens, UniProt Q13237) |  | 86% |
| CSNK2A2 (Homo sapiens, UniProt P19784) |  | 71% |

Series 3
SMILES: CC(=O)N1CCN(c2nc(OC[C@@H]3CCCN3C)nc3c2CCN(c2cccc4cccc(Cl)c24)C3)C[C@@H]1CC#N
Effect on: binding
Action: competitor
Method: NanoBRET
Cells: HEK293
KRAS Q61L: GTPase KRas (KRAS, Homo sapiens, UniProt P01116, Q61L)
KRAS Q61R: GTPase KRas (KRAS, Homo sapiens, UniProt P01116, Q61R)
| target | conditions | normalized BRET |
| --- | --- | --- |
| KRAS Q61L | 3.7 µM | 33.5% and 37.7% and 32.7% |
| KRAS Q61R | 11.1 µM | 109% and 84.2% and 97.8% |
| KRAS Q61R | 1.69 nM | 107% and 114% and 99.7% |
| KRAS Q61L | 137 nM | 88.7% and 83.3% and 80.1% |
| KRAS Q61L | 1.69 nM | 95.3% and 97.6% and 104% |

Series 4
Target: Beta-1 adrenergic receptor (ADRB1, Homo sapiens, UniProt P08588)
Chain of UniProt P08588 (whole entry, looked up): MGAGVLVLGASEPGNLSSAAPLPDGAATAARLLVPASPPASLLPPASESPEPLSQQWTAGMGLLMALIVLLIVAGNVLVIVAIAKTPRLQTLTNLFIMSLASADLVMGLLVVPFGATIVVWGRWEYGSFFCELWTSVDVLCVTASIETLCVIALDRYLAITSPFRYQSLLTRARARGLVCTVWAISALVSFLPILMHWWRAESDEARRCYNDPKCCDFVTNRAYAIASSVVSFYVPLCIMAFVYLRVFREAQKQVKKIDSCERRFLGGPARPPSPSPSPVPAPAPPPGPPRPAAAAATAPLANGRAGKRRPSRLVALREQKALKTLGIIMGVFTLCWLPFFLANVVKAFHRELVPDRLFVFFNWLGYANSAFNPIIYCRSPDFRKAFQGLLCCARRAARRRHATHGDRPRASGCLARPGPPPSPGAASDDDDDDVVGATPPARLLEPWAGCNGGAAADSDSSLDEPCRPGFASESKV
Effect on: ligand displacement
Tested at: 10 µM
| Compound | inhibition [%] |
| --- | --- |
| C[C@@H]1CN(c2cc(-c3n[nH]c4ccc(OC5(C)CC5)cc34)ncn2)C[C@H](C)O1 | -20.6 |
| CCOc1ccc(S(=O)(=O)Nc2ccc(Cl)cc2C#Cc2cnc(C(=O)O)cc2OC)c2ncccc12 | 18.8 |
| c1ccc(C2CCN(c3cnc4c(N5CCOCC5)nccn34)CC2)cc1 | 23.5 |
| CS(=O)(=O)N1CCCC(NC(=O)[C@H](CCC2CCCCC2)NC(=O)c2ccc(CNC(=O)c3cnc4ccccn34)cc2)C1 (stereo partly shown) | 20.3 |
| Cc1cc(Nc2nccc(C)n2)cc(-c2cnc([C@@]3(O)CC[C@H](C(=O)O)C(C)(C)C3)s2)c1 | -9.08 |
| C[C@H](c1ccnc(Nc2nc3ccc(-c4cc(N(C)C)ncn4)cc3[nH]2)c1)N1CCN(C(=O)CC(F)(F)F)CC1 | 24.3 |
| CN1CCN(c2cnc3c(C4CCN(C(=O)c5ccc(OC(F)(F)F)cc5N)CC4)ncnc3c2)CC1 | 12.6 |
| COc1cc(C(=O)O)ncc1C#Cc1ccccc1NS(=O)(=O)c1cccc2c(N(C)C)ccnc12 | 16.7 |
| C[C@@H](c1cccc(C#N)c1)n1cc(Cl)cc(C(N)=O)c1=N | -30.6 |
| CN1CCN(c2ccnc(NCCc3ccccc3)n2)CC1 | 6.05 |
| Cn1cc(Cl)c2c(Oc3c(F)cc(Nc4cc(Cl)nc(N)n4)cc3F)ccnc21 | -2.51 |
| Nc1cnc(N2CCc3cc(S(=O)(=O)Nc4c(F)cc(Cl)cc4F)cc(N4CCCC4=O)c32)nc1 | 8.84 |
| Cn1nc(C(=O)NCc2ccc(C(=O)O)cc2)cc1-c1ccc2[nH]ccc2c1 | -18.9 |
| CN([C@@H]1CCc2c(CC(=O)O)c3ccccc3n2C1)S(=O)(=O)c1ccc(F)cc1 | -2.68 |
| CC(=O)Nc1ncc(CN2CCC[C@H](Cc3cc(C)nc(C)c3)C2)s1 | 3.29 |
| CC[C@H](CC(=O)O)n1c(=O)c2ncccc2n(Cc2cn(C)c3cc(C)cc(C)c23)c1=O | 10.4 |
| CCC(=NO)C(C)=Cc1ccc(F)c(C)c1 | 10.2 |
| O=S(=O)(NC1CCC(c2cc(F)ccc2F)(S(=O)(=O)c2ccc(Cl)cc2)CC1)C(F)(F)F (stereo not shown) | -16.2 |
| Nc1nc(NCc2ccccc2)nc(-c2cccc(CO)c2)n1 | -3.07 |
| CCC(F)(F)c1cc(N2CCC(S(C)(=O)=O)CC2)nc2sc(C(N)=O)c(N)c12 | -8.38 |
| COc1cc(-c2cn(C3CCc4c(F)cccc4N(CC(F)(F)F)C3=O)nn2)ccc1-n1cnc(C)c1 (stereo not shown) | 2.45 |
| CCc1ccccc1C(=O)Nc1n[nH]c2c(C)c(F)c(C3C(C#N)=C(C)N(C)C(C)=C3C#N)cc12 | 1.59 |
| CN(C)c1ncnc(-c2ccc3nc(Nc4cc(CN5CCN(C(=O)CC(F)(F)F)CC5)ccn4)[nH]c3c2)c1Cl | -6.2 |
| CN(C)C(=O)c1sc2nc(N3CCC(S(C)(=O)=O)CC3)cc(C(F)(F)F)c2c1N | -41.2 |
| COCCOc1nc(-c2ccc(Cl)nc2)nc2c1CN(C(=O)c1ncn3ccccc13)CC2 | 16.8 |

Series 5
Organism: Sarcocystis neurona
Effect on: parasite growth
Tested at: 10 µM
Setting: secondary screen
| SMILES | inhibition |
| --- | --- |
| CC(=O)NC[C@H]1CN(c2ccc(N3CCOCC3)c(F)c2)C(=O)O1 | 7.1% |
| COC(=O)C1=C(C)NC(C)=C(C(=O)OCCN(C)Cc2ccccc2)C1c1cccc([N+](=O)[O-])c1 (stereo not shown) | -35.1% |
| COc1cc(C[C@@H](CO)[C@H](CO)Cc2ccc(O)c(OC)c2)ccc1O | -10.9% |
| COc1ccc2[n-]c([S+]([O-])Cc3ncc(C)c(OC)c3C)nc2c1.COc1ccc2[n-]c([S+]([O-])Cc3ncc(C)c(OC)c3C)nc2c1.[Mg+2] (stereo not shown) | 40.9% |
| NS(=O)(=O)c1cc2c(cc1C(F)(F)F)NC(Cc1ccccc1)NS2(=O)=O (stereo not shown) | -35.9% |
| CCCCC(=O)O[C@H]1CC[C@H]2[C@@H]3CCc4cc(O)ccc4[C@H]3CC[C@]12C | -44.8% |
| CCN1CC(CCN2CCOCC2)C(c2ccccc2)(c2ccccc2)C1=O.Cl (stereo not shown) | -14.4% |
| CCc1oc2ccccc2c1C(=O)c1cc(Br)c(O)c(Br)c1 | 1.8% |
| CN(C)c1ccc(O)c2c1C[C@H]1C[C@H]3[C@H](N(C)C)C(O)=C(C(N)=O)C(=O)[C@@]3(O)C(O)=C1C2=O | 13.4% |
| CCCCC1=NC2(CCCC2)C(=O)N1Cc1ccc(-c2ccccc2-c2nnn[nH]2)cc1 | -12.5% |

For quick reference, copied from above (series 4):
| Compound | inhibition [%] |
| --- | --- |
| CN([C@@H]1CCc2c(CC(=O)O)c3ccccc3n2C1)S(=O)(=O)c1ccc(F)cc1 | -2.68 |
| CC(=O)Nc1ncc(CN2CCC[C@H](Cc3cc(C)nc(C)c3)C2)s1 | 3.29 |
| CC[C@H](CC(=O)O)n1c(=O)c2ncccc2n(Cc2cn(C)c3cc(C)cc(C)c23)c1=O | 10.4 |
| CCC(=NO)C(C)=Cc1ccc(F)c(C)c1 | 10.2 |
| O=S(=O)(NC1CCC(c2cc(F)ccc2F)(S(=O)(=O)c2ccc(Cl)cc2)CC1)C(F)(F)F (stereo not shown) | -16.2 |
| Nc1nc(NCc2ccccc2)nc(-c2cccc(CO)c2)n1 | -3.07 |
| CCC(F)(F)c1cc(N2CCC(S(C)(=O)=O)CC2)nc2sc(C(N)=O)c(N)c12 | -8.38 |
| COc1cc(-c2cn(C3CCc4c(F)cccc4N(CC(F)(F)F)C3=O)nn2)ccc1-n1cnc(C)c1 (stereo not shown) | 2.45 |
